Assay results collected from several papers.
Every numbered part comes from another study and shows a few of its results, in no order.

Study 1
Target: RNA binding protein fox-1 homolog 2, RRM domain, GST-SBP tag (RBFOX2, Homo sapiens, UniProt O43251-10, residues 100-194)
Technique: RNA Bind-n-Seq
Form: RNA
Medium: in vitro
Tested at: 365 nM
Setting: natural RNA segment, single round, ends assumed
Relative to: no-protein control
Direction: higher = stronger binding
All sequences stand within: GGGAGUUCUACAGUCCGACGAUC … UGGAAUUCUCGGGUGCCAA
Target sequence (chain): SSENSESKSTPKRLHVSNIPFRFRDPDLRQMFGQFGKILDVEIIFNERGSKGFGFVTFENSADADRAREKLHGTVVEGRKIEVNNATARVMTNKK
| Oligonucleotide | RBNS enrichment (R) |
| --- | --- |
| AUAAACUUCAGAGGCCUCUGGCUCCCUCUAGUGACAAGUUUGUUCCAAGGGACAUACACUGAAACAUACAGCUGUCUAGGUUAUAAAUGUGUAGGUCUACAACUGCUAGU | 0.313 |
| CAAGGAGAUGCUCUCCCCGGUCUUCUGCUGCAAUUUAGAUUCCUUUCCCUUCUCUCCAGUUCUCCUUCCCUUACCAAGGAGAGGGGAGCAAAUGGUUUUGGGCAAGGGCU | 0.249 |
| UUUUAUGUUUUGUACAUUAAUUGAUUAAUAAAAUAAUAAUUUUAUGUGAGAAUGUUUUCAAAAAGCCAAAUAAAGUCACAGAUAUUUUAGCUUCUUUCCCAGAAUAAACU | 0.603 |
| CCUCUGUCCCGAGGUCGUCGUCUGCUUUCUUUUUUGGGUUUCUUUCUAGAAGAUUGAGAAGUGCAUAUGACAGGCUGAGAGCACCUCCCCAAACACACAAGCUCUCAGCC | 0.674 |
| AAACAAGAAUGGCAAGCCUAAGUUUGUGAGGCAUCAUCACAAUUCUGUCAAAAUAAUGUUAUGCUUUUGAAAGAUAAAGCCUGCUCAAUCUAGGGAUCCAGUUGUGCAGU | 3.7 |
| CCACUGCUCCCACCAGCGUACGGAUUAAGUUCAUCAGGCUUCCAUCGGCUGGAGCAUGGGACCAUAGCCCCUGCCCAGGAGCCGUACCCUCGGACCACAGUGGCUCUGUA | 0.27 |
| AUACGCAAGCUGCACAACCUGUAUAUUGUAUGCAUUGCUGCGUGGAGGCUGUUUAUUUCAACCUUUUUAAAAAUUGUGUUUUUUAGUAAAAUGGCUUAUUUUUUCCCAAA | 1.13 |
| CUUCCUCGGGGCUCUCUGCUGCUCUACCAAUUGUGUUGCUUUCCACUUCUUCAGUGAUUCUUCAGUGAUCCUGAGAGACUAACAGCUGGAGACUCUAGCUGGAGCAGUUG | 0.336 |
| CCACUGCCAAAGGCAGAAUUUAAACUAGGGGCUGAGGGAUAGCUCCGAGUAAUGUCCAAUGCUGGGAGUUGGUCAGUUCAGAACCAAUUGUGUCGGUAAAAAACCAAGGG | 0.785 |
| GAUGCUGGUUUUUGCCUGAAGGCCCUGCAGCCUGCCCACAUCAGGUUAAACCCACAGCUUUUGUGUGUGGUUUGUUUUGUUGUGUUUUCUUUCUCUAUGUUCCAAAACCA | 2.18 |
| GGUUUCCAAGAUAGCACAGUGACCACAAAGGGAGAUUUUAGCAGAGCCAGCCUGCUAGAAGGCAGGAGUAGCCAGAAUGGAACAUCUGUGCAGAAAGUAGGCCAUUCUCA | 0.651 |
| ACCUUUCCAAAACAUCGCGAGAGCAUACAUAGACAAAAAUGAAAUAGAAAGCUCUUGCAUGCUUGAGUCCACCAUUGGGGGAAAUGACAGAAAACUGGACCUGAGGGCAU | 1.57 |

Study 2
Target: Histone acetyltransferase KAT6A, both winged helices, GST fusion (KAT6A, Homo sapiens, UniProt Q92794, residues 1-181)
Technique: protein binding microarray
Form: double-stranded DNA, one strand shown
Medium: in vitro
Tested at: not given
Setting: 8-mer, flanks averaged, mean of 2 arrays, mostly near background
Relative to: not given
Direction: higher = stronger binding
Target sequence (chain): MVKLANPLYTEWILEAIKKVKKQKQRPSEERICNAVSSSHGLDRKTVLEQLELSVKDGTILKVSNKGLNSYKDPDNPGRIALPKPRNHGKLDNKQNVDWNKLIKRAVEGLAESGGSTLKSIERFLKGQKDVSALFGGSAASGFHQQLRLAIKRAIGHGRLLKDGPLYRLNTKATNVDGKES
| Oligonucleotide | E-score |
| --- | --- |
| CAATTCTA | -0.218 |
| TTCATGAA | 0.0759 |
| TGCTACCA | -0.183 |
| ATGAGTTA | -0.0736 |
| GAGAAGAC | -0.0607 |
| GACTGGCC | -0.0744 |
| CGGGAGAC | 0.262 |
| CCATACAC | -0.0999 |
| CGCCCAAA | -0.0305 |
| AATGCGTC | 0.144 |
| AAGAGGAA | -0.174 |
| AAATGAGA | -0.0793 |
| ACGGGAAG | 0.295 |
| AAAAAAAG | -0.0577 |
| TAGGTCAA | -0.251 |
| TCAATGGA | -0.0713 |
| GCGTCACA | 0.0726 |
| AGCCACGC | 0.0618 |
| CGGCCAGA | 0.162 |
| GCGTGGAC | 0.203 |
| AGGTTCTA | -0.135 |

Study 3
Target: Centromere-binding protein 1, full length, His-tagged (CBF1, Saccharomyces cerevisiae, UniProt P17106, residues 1-351)
UniProt P17106, sequence (whole entry, looked up): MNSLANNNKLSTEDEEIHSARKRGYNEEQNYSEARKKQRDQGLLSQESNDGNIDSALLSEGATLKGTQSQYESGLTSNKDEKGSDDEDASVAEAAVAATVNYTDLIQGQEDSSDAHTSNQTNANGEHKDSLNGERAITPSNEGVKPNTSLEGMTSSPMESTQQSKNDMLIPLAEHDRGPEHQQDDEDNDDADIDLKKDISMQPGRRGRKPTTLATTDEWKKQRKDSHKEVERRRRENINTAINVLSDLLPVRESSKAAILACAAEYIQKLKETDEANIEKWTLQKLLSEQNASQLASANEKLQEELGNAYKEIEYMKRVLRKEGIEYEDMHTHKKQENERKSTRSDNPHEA
Technique: competition protein-binding microarray
Form: double-stranded DNA, one strand shown
Medium: in vitro
Tested at: 2 µM
Setting: whole 60-bp probe, lowest competitor level
Together with: Pho4 competitor, 0.05 µM
Direction: higher = stronger binding
All sequences stand within: … GTCTTGATTCGCTTGACGCTGCTG
| Oligonucleotide | fluorescence intensity [a.u.] |
| --- | --- |
| ATATGTGTCCGTAACCTCGTAGTTAGTGGCTGATTT | 76.6 |
| TCTCGAAACAATTGCAATGTGACGGTCTTGTTAGGC | 80.4 |
| ATCTTTGAGTGTCGGCACGTGTTGGGTTACGAATTC | 1840 |
| ACCGTAAAATGGCCTCACGTGGAACGCTCCCGTCTA | 760 |
| AAATTACTAAGTTGCCGCGTGGGTGACGCCGTATGA | 86.7 |
| CTTAGGAATGATTAAAGCATGACAATCAGCAGTAGG | 126 |
| AAAGCGGTAATTTGTCACGAAACTTCACATATCTAT | 105 |
| GCTGTCTCCCTGCGACATGTGTACAGGTGCCATCAT | 97 |
| GCTAGTAGCTCTACCCACGGGACTACTCACAGTTCT | 148 |
| TGCGCAACAACTTGGATTGTGGGTGTATGTCTAGAA | 70.5 |
| CTAACGAAGGTTTGTCTTGTGGGTGACAAGCCAAGT | 68.4 |
| CGATGTATCTTCCGTCACCTGCACCACCACAATTGA | 147 |
| CGTCTCGAGCATGAGCGTGTGCAACAGTTGCAACAA | 89.9 |
| GTCTTGTCTCATTGTTTCGTGGGTGTCCCCACTTCA | 100 |
| AGTACCACCTCTTTGAACGTGACAAAAGGTAGTAAT | 242 |
| TTAGGTGTCTGGCTCAGCGTGAGAAGATCTTAGAAG | 76 |
| AACGACTTCGTCAAGTCCGTGACGGAGTCGGGGTAC | 64.9 |
| GTCAAGCTGAAATCTCACGTGGGTACAGACGGGGAA | 829 |
| CTAACGAAGGTTTGTTCTGTGGGTGACAAGCCAAGT | 72.2 |
| AAATTACTAAGTTGTCACGAAACTTACCCCGTATGA | 81 |
| TGAAAAATCTGAGACAACGTGCCAGTTTGTAAGTGC | 190 |
| TTACATGTAGGTAGCTTCGTGCCAGAACGCAAGGGT | 72 |

Study 4
Target: Transcriptional repressor CTCF (CTCF, Homo sapiens, UniProt P49711, residues 1-727, full length assumed)
Technique: protein-binding microarray
Form: double-stranded DNA, one strand shown
Medium: in vitro
Tested at: not given
Setting: k-mer, scored over probes, only values ≥0.25
Direction: higher = stronger binding
Residues (chain): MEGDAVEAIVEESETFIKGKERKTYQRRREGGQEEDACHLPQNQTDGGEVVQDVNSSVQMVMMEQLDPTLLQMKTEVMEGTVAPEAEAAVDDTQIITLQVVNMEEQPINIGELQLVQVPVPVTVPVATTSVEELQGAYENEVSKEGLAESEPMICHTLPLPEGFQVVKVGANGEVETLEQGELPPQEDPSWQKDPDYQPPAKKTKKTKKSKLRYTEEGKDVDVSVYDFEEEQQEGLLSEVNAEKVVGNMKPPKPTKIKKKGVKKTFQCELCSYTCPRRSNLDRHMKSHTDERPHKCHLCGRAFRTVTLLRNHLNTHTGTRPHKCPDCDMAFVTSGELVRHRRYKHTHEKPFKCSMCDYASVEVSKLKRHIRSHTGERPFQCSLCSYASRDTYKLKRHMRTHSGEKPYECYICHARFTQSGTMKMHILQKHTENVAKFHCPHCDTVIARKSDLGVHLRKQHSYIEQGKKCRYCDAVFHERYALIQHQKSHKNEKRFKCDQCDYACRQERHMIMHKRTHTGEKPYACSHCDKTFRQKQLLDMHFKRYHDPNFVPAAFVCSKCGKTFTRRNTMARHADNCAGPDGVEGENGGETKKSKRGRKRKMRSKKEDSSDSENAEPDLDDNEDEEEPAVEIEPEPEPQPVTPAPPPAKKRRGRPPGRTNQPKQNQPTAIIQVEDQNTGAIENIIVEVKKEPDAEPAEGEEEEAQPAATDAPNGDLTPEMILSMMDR
| Oligonucleotide | E-score |
| --- | --- |
| TTATTAAA | 0.352 |
| AAATCACC | 0.262 |
| CCATATAC | 0.276 |
| AAATAACA | 0.28 |
| TATATAAA | 0.386 |
| ATGTTTTG | 0.27 |
| AAATTGCG | 0.306 |
| ATATGAAT | 0.26 |
| ATAGTAAA | 0.267 |
| AAATGAAA | 0.262 |
| ATGATATA | 0.255 |
| AAGCGCTA | 0.252 |
| AATTTCGC | 0.275 |
| TGCACTAA | 0.284 |
| CGGCGCAA | 0.308 |
| CTAAATAA | 0.289 |
| AATTCCCC | 0.283 |

Study 5
Target: PABPC1L2, full length, GST fusion (mouse, UniProt A0ABA7IW68)
Technique: RNAcompete
Form: RNA
Medium: in vitro
Tested at: 20 nM
Setting: 7-mer, probes averaged, single round
Relative to: mean of 7-mers
Direction: higher = stronger binding
Residues (chain): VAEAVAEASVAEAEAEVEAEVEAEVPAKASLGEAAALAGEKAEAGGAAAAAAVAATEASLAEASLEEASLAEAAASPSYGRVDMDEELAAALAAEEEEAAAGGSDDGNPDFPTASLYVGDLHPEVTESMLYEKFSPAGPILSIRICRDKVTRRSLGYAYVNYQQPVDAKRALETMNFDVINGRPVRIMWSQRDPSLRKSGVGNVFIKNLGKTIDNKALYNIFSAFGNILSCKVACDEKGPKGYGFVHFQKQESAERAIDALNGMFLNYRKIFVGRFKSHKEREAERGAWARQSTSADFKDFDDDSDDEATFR
| Oligonucleotide | 7-mer Z-score |
| --- | --- |
| CUGAUAU | -0.175 |
| UUUAGGG | 0.34 |
| ACCCGGU | -0.188 |
| GAUCGGC | -0.0754 |
| CUUUACU | -0.0881 |
| UUAAAAU | 1.46 |
| AGCCCAC | -0.351 |
| ACAUGAG | 0.102 |
| AAGCAUU | 0.0297 |
| AAUGAGU | -0.0337 |
| AGCUAUC | -0.222 |
| CGAUAUC | -0.166 |
| CCACAAC | -0.258 |
| UACUAAC | -0.141 |
| CCGAACC | -0.255 |
| UUGUCGA | -0.258 |
| AGCCGAU | -0.159 |
| CGGCAGC | 0.0243 |
| AGUAUCA | -0.0428 |
| UUGAUAU | -0.0772 |
| GGAGAGG | 0.309 |
| UAGCCAG | -0.173 |
| CUGUUAC | -0.335 |
| GCCCAAU | -0.231 |
